Measurements pooled from the literature.
Lines come from different studies, so protocols differ. ± marks the error that the study gave.

COc1cc(OC)c2c(=O)cc(-c3ccc(N(C)C)cc3)oc2c1-c1c(OC)cc(OC)c2c(=O)cc(-c3ccc(N(C)C)cc3)oc12 — IC50 (Toxoplasma gondii; parasite proliferation, 3H-uracil incorporation; ME49 tachyzoites): 12.3 ± 4.01 µM
OC[C@H]1O[C@@H](Oc2cc3c(O)cc(O)cc3[o+]c2-c2ccc(O)cc2)[C@H](O)[C@@H](O)[C@@H]1O — IC50 (HIV-1; viral infection; TZM-bl, BaL (CCR5-tropic); 48 h): > 100 µM
CCCCC[C@H](O)/C=C/[C@@H]1[C@@H](C/C=C\CCCC(=O)O)[C@@H](O)C[C@H]1O — IC50 (Leishmania donovani; intracellular amastigote growth, alamarBlue; THP-1-derived macrophages; 48 h): > 100 µM
O=C(Nc1ccnc(C(F)(F)F)c1)Nc1cccc2c1OC(F)(F)O2 — IC50 (Leishmania donovani; MHOM/ET/67/L-82, axenic amastigotes): 1 µM
C[C@H]1O[C@H](OC[C@H]2O[C@@H](Oc3c(-c4ccc(O)cc4)oc4cc(O)cc(O)c4c3=O)[C@H](O)[C@@H](O)[C@@H]2O)[C@@H](O)[C@@H](O)[C@@H]1O — IC50 (HIV-1; viral infection; TZM-bl, BaL (CCR5-tropic); 48 h): > 100 µM
COc1cc(OC)c2c(=O)cc(-c3ccc(N(C)C)cc3)oc2c1 — IC50 (Toxoplasma gondii; parasite proliferation, 3H-uracil incorporation; ME49 tachyzoites): 22.9 ± 14.1 µM
O=C(C#Cc1ccc(F)c(F)c1)c1ccccc1Cl — IC50 (Pseudomonas aeruginosa; biofilm formation; PA14; static): 10 µM
O=C(/C=C/c1ccc(O)c(O)c1)OCCc1ccccc1 — EC50 (Toxoplasma gondii; parasite growth; HFF, bradyzoite, alkaline-induced): 22.3 µM
O=C(C#Cc1ccc(F)c(F)c1)c1cccc(Cl)c1 — IC50 (Pseudomonas aeruginosa; biofilm formation; PA14; static): 14 µM
CCNCc1nc2c(N)nc3ccccc3c2n1CC(C)(C)O — EC50 (Toxoplasma gondii; parasite growth; HFF, bradyzoite, alkaline-induced): 3530 µM
C[C@@H]1O[C@@H](OC[C@H]2O[C@@H](Oc3cc4c(O)cc(O)cc4[o+]c3-c3ccc(O)c(O)c3)[C@H](O)[C@@H](O)[C@@H]2O)[C@H](O)[C@H](O)[C@H]1O — IC50 (HIV-1; viral infection; TZM-bl, BaL (CCR5-tropic); 48 h): > 100 µM
O=C(Nc1ccc2c(c1)B(O)OC2)Nc1ccc(F)c(C(F)(F)F)c1 — IC50 (Leishmania donovani; MHOM/ET/67/L-82, axenic amastigotes): 0.97 µM
OC[C@H]1O[C@@H](Oc2cc3c(O)cc(O)cc3[o+]c2-c2ccc(O)c(O)c2)[C@H](O[C@@H]2OC[C@@H](O)[C@H](O)[C@H]2O)[C@@H](O)[C@@H]1O — IC50 (HIV-1; viral infection; TZM-bl, NL4-3 (CXCR4-tropic); 48 h): 51.3 µM
Oc1ccc(-c2nc(-c3ccc(OC4CCCC4)cc3)no2)cc1 — IC50 (Clostridioides difficile; ATCC 43255; spores): 24 µg/mL
O=C(O)CCC(=O)OCCN(Cc1ccc(Oc2ccc([N+](=O)[O-])cc2)cc1)C(=O)C(Cl)Cl — IC50 (Leishmania donovani; parasite growth; THP-1-derived macrophages, intracellular amastigotes; 48 h): 4.04 ± 1.62 µM
COc1cc(C#CC(=O)CC(C)C)ccc1O — IC50 (Pseudomonas aeruginosa; biofilm formation; PA14; static): 17 µM
COc1cc(C)c(-c2c(C)cc(OC)c3c(=O)cc(-c4ccc(C(F)(F)F)cc4)oc23)c2oc(-c3ccc(C(F)(F)F)cc3)cc(=O)c12 — IC50 (Toxoplasma gondii; parasite proliferation, 3H-uracil incorporation; ME49 tachyzoites): 10.4 ± 2.99 µM
OC[C@H]1O[C@@H](Oc2cc3c(O)cc(O)cc3[o+]c2-c2ccc(O)c(O)c2)[C@H](O)[C@@H](O)[C@H]1O — IC50 (HIV-1; viral infection; TZM-bl, BaL (CCR5-tropic); 48 h): > 100 µM

Excerpt of the above:
O=C(C#Cc1ccc(F)c(F)c1)c1cccc(Cl)c1 — IC50 (Pseudomonas aeruginosa; biofilm formation; PA14; static): 14 µM
